Assay results pooled from the literature.
Every numbered part comes from another study and shows a few of its results, in no order. Substitutions count along the parent as printed.

Block 1
Target: CCNE1, cyclin fold, Cln2 fusion (human)
Technique: yeast growth competition, sequencing
Sample: yeast
Setting: strong parent motif
Reference: not given
Direction: higher = stronger binding
Measurement: normalised enrichment score
Starting sequence: BRCA2 docking peptide (human); PSIKRNLLNEFDR
R5D: 0.746
F11C: -0.655
L7T: 0.592
D12R: 0.573
I3W: 4.3
D12W: 2.31
N9K: 2.08
R5V: 0.808

Block 2
Target: ABI1, truncated, D143A, DHFR fusion (Arabidopsis thaliana)
Technique: DHFR PCA, deep sequencing
Sample: yeast
Setting: methotrexate growth selection, single substitutions
With: (+)-ABA 0.0091 µM
Reference: wild-type fitted maximum
Direction: higher = stronger binding
Measurement: relative binding score
Starting sequence: PYL1, truncated, DHFR fusion (Arabidopsis thaliana); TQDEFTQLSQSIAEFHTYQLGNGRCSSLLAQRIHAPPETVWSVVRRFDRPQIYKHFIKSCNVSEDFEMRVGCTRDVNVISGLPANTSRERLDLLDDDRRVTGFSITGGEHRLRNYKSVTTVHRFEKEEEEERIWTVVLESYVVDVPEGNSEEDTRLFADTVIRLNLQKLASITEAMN
E38T: 1.98%
R113Y: -9.6%
E109A: 5.21%
S117M: 0.646%
P50T: 23.3%
V142N: 1.79%
E139D: -2.97%
A13D: 27.2%

Block 3
Target: TAR DNA-binding protein 43, full length, His tag (TARDBP, Homo sapiens, UniProt Q13148, residues 1-414)
Technique: RNA Bind-n-Seq
Molecule type: RNA
Sample: in vitro
Concentration: 20 nM
Setting: 6-mer, flanks averaged, single round
With: 150 mM KCl
Reference: input library
Direction: higher = stronger binding
Measurement: 6-mer enrichment (R)
UAGCGG: 1.68
CACAGG: 1.14
UCAGCG: 0.974
UGUCGC: 0.816
CAAGUC: 0.609
AACCGA: 0.66
UUGCGA: 0.781
GUAUCC: 0.63
GCUGAU: 0.793

Mixed results
PhoQ, residues 284 288 289 292 302 303 ALSMDL  fold induction (PhoP, residues 12 14 15 18 19 LWHCS (Escherichia coli, UniProt P23836); Sort-seq, measured: YFP reporter; E. coli; PhoQ-PhoP variant library, with: 10 µM Mg2+; reference: high Mg2+ state, higher = stronger signaling): 7.82

Repeated from above (block 2):
S117M: 0.646%
P50T: 23.3%
V142N: 1.79%
